Results of several laboratories.
Each line is one published result; not all experiments were run side by side. Several values in a cell are separate wells, animals, samples, runs or records. ± marks the error that the study gave.

For `Oc1cc(C(F)(F)F)ccc1-c1nc2c(C(F)(F)F)cc(C(F)(F)F)cc2[nH]1`, the IC50 was 209 ± 110 nM (NF-κB (human); reporter gene, inhibitor; HEK293 NF-κB luciferase reporter; with: TNFα).
The IC50 of `CCCCC/C=C/C(=O)CCc1ccc(O)c(OC)c1` is reported as 2.93 µg/mL (mAb 6-AT6; antibody binding, indirect competitive ELISA; with: coating antigen 5-OVA).
The IC50 of `COCCNc1nc(-c2nccn2C)nc2sc(-c3cccc(OC)c3Cl)c(-c3ccccc3)c12` is reported as 1000 to 3000 nM (Ras; Ras-GTP formation, inhibitor, GTP pull-down; MIA PaCa-2; 6 h, with: EGF 15 min).
`COc1cc(CCC(C)=O)ccc1O` gave an IC50 of > 4 µg/mL (mAb 6-AT6; antibody binding, indirect competitive ELISA; with: coating antigen 1-OVA).
`CC(C)c1cnc(-c2cc(Cl)ccc2F)cc1Nc1ccncc1C(=O)NC(CO)CO` gave an IC50 of 46.1 ± 2.05 nM (TGF-β receptor type 1 (human); SMAD2 Ser465/467 phosphorylation, inhibitor; MDA-MB-231; total drug, with: TGF-β).
`Nc1nc2c(N)[n+]3cnc2n1[C@@H]1O[C@H](COP(=O)([O-])OP(=O)(O)OC[C@H]2O[C@@H]3[C@H](O)[C@@H]2O)[C@@H](O)[C@H]1O` has an IC50 of 1000 nM (cADPR receptor; Ca2+ release, antagonist; permeabilised Jurkat T cells; with: cADPR).
With `CC(C)C[C@@H](/C=C/S(C)(=O)=O)NC(=O)[C@H](CC(C)C)NC(=O)[C@@H](NC(=O)N[C@H](C(=O)OC(C)(C)C)C(C)C)C(C)C` the IC50 was 1000 nM (rabbit 26S proteasome beta5; chymotrypsin-like activity; 30 min, 37 °C, with: Suc-LLVY-AMC).
For `O=C(Cc1ccccc1)Nc1nc2ccccc2n1Cc1ccccc1`, the IC50 was ~2200 nM and 2200 nM (HIF-1α; HRE reporter gene, inhibitor; MDA-MB-231-Luc; 48 h, hypoxia 1% O2).
`Oc1cc(I)ccc1-c1nc2c(Cl)cc(Cl)cc2[nH]1` has an IC50 of 3550 ± 920 nM (NF-κB (human); reporter gene, inhibitor; HEK293 NF-κB luciferase reporter; with: TNFα).
`COC1CCC(Nc2nc(-c3nccn3C)nc3sc(-c4ccn(C)n4)c(-c4ccccc4)c23)C1` (stereo not shown) has an IC50 of 1000 to 3000 nM (Ras; Ras-GTP complex formation, inhibitor, GTP pull-down; PANC-1; 6 h, with: EGF 15 min).

For quick reference, copied from above:
`Nc1nc2c(N)[n+]3cnc2n1[C@@H]1O[C@H](COP(=O)([O-])OP(=O)(O)OC[C@H]2O[C@@H]3[C@H](O)[C@@H]2O)[C@@H](O)[C@H]1O` has an IC50 of 1000 nM (cADPR receptor; Ca2+ release, antagonist; permeabilised Jurkat T cells; with: cADPR).
With `CC(C)C[C@@H](/C=C/S(C)(=O)=O)NC(=O)[C@H](CC(C)C)NC(=O)[C@@H](NC(=O)N[C@H](C(=O)OC(C)(C)C)C(C)C)C(C)C` the IC50 was 1000 nM (rabbit 26S proteasome beta5; chymotrypsin-like activity; 30 min, 37 °C, with: Suc-LLVY-AMC).
